Published values from different studies.
Protocols differ between the studies behind these lines. Several values in a cell are separate wells, animals, samples, runs or records. ± marks the error that the study gave.

Structure (SMILES) | test | test system | setting | how to read | endpoint | result
C=CCN1CC(=O)N2[C@@H](Cc3ccc(O)cc3F)C(=O)N(Cc3cccc(N4CC(N5CCN(CC)CC5)C4)n3)C[C@@H]2N1C(=O)NCc1ccccc1 | – | advanced solid tumour patients | oral, 10 mg twice daily, grade ≥3, dose-escalation | – | any treatment-related adverse event | 0%
O=C1NCCc2nc(OCc3cccc(F)c3)ccc21 | modified Irwin test | Sprague-Dawley rat, male | oral, 100 mg/kg, 1 h | higher = stronger change | motor activity score | 0.6
CCOCc1nc(O)c(-c2nnc(Cc3ccc(Cl)cn3)o2)c(O)c1-c1c(OC)cccc1OC | – | rat, anaesthetised, cannulated, plasma | intravenous infusion, 10 µg/kg/min, 30 min after infusion stop, washout | – | plasma concentration | 859 nM
O=C([O-])CN1CCN(CC(=O)[O-])CCN(CC(=O)[O-])CCN(CC(=O)[O-])CC1.[Gd+3] | LC-ICP-MS | human plasma | pH 7.4, 37 °C | – | dissociation rate | not detected
N#CN1C[C@H](n2nc(-c3ccc(Oc4ccc(Cl)cn4)cc3)c(C(N)=O)c2N)CCC12CC2 | – | human, fasted, plasma | oral, 600 mg | – | AUC(0-24h) | 12300 ± 4320 ng·h/mL
CC(C)C[C@H](NC(=O)[C@@H](Cc1c[nH]c2ccccc12)NC(=O)[C@H](Cc1ccc(O)cc1)NC(=O)[C@H](CO)NC(=O)[C@H](Cc1c[nH]c2ccccc12)NC(=O)[C@H](Cc1c[nH]cn1)NC(=O)[C@@H]1CCC(=O)N1)C(=O)N[C@@H](CCCNC(=N)N)C(=O)N1CCC[C@H]1C(=O)NCC(N)=O | – | Chinese CPP children, overall | intramuscular, 22.5 mg, 12 months, day 1, month 6 | – | patients, serious adverse events | 0%
COc1cc2nccc(Oc3ccc(NC(=O)c4cc5c(n(-c6ccccc6)c4=O)CCCC5=O)nc3)c2cc1OC | – | relapsed or refractory AML | oral, all dose levels | – | grade ≥3 Hypophosphatemia patients | 15%
Cn1cncc1[C@@](N)(c1ccc(Cl)cc1)c1ccc2c(c1)c(-c1cccc(Cl)c1)cc(=O)n2C | – | healthy human, plasma | intravenous, 25 mg | – | Vss | 126 L
N#C/N=S(\c1ccc(C(F)(F)F)cc1)C1CC1 (centres unmarked) | – | human liver microsomes | – | relative to: hepatic blood flow | metabolic stability | < 23%
OCc1nc2ccc(NCc3ccc(C(F)(F)F)cc3)cc2[nH]1 | – | Balb/c mouse, male, kidney | intravenous, 1 mg/kg, 6 h | relative to: tissue over plasma | tissue/plasma ratio | 7.5 ± 3.4
CCc1cc(C(=O)NC)c2nccc(N3CCc4c(cc(Cn5ccnc5)cc4-c4cn(C)nc4C(F)(F)F)C3=O)c2c1 | item: TBIL | Sprague Dawley rat | oral, 100 mg/kg once daily, 7 days | relative to: vehicle | change in clinical chemistry or haematology parameter | 4.4%
OCc1cc(C(O)CNCCCCCCOCCCCc2ccccc2)ccc1O (centres unmarked) | equilibrium dialysis | rat, lung homogenate | – | – | fraction unbound | 0.0029
C=CC(=O)N(C)CCOc1c(N)ncnc1-c1cc(F)cc(NC(=O)c2ccc(C3CC3)cc2F)c1C | – | human, whole blood | oral, 400 mg single dose | – | AUC | 1060 ng·h/mL
Cc1ccc(-c2cc(C(F)(F)F)nn2-c2ccc(S(N)(=O)=O)cc2)cc1 | – | rat, stomach | concentration not given, 4 h | relative to: normal control | ulcer preventive index | 73%
OC[C@H]1O[C@@H](c2ccc(Cl)c(Cc3ccc(O[C@H]4CCOC4)cc3)c2)[C@H](O)[C@@H](O)[C@@H]1O | item: infections and infestations | healthy Korean men | oral, dose not given | – | number of TEAEs | 1
O=C(Nc1nc2cccc(-c3ccc(CN4CCS(=O)(=O)CC4)cc3)n2n1)C1CC1 | item: nausea | human rheumatoid arthritis patients | oral, 150 mg once daily, 4 weeks, regardless of relatedness | – | treatment-emergent adverse events | 6.7%
O=C1CC[C@H](N2Cc3cc(N4CCN(CC5CCN(c6ccc([C@@H]7c8ccc(O)cc8CC[C@@H]7c7ccccc7)cc6)CC5)CC4)ccc3C2=O)C(=O)N1 | – | human | oral, 200 mg, with: dabigatran etexilate 75 mg | – | participants with TEAE dry skin | 0%
O=C1CCc2ccc(OCCCCN3CCN(c4cccc(Cl)c4Cl)CC3)cc2N1 | item: Sedation | patients, CYP2D6 intermediate metabolizers | dose not given, long-acting oral or depot | – | adverse event incidence | 5.8%
C=CC(=O)N1C[C@H](n2c(C#CC3CC3)c(C(=O)N[C@H](C)c3ccccc3)c3c(N)ncnc32)C[C@@H]1C | – | BALB/cAJcl-nu/nu male mouse, plasma | oral, 25 mg/kg, repeated dosing 7 days | – | apparent half-life | 45.6 min
Cc1cccc(CNC(=O)c2cn(CCNC(=O)c3ccccc3S)c3cc4c(cc3c2=O)OC(F)(F)O4)n1 | – | Sprague-Dawley rat, male, plasma | intramuscular, 30 mg/kg of parent drug | – | bioavailability | 23.7 ± 5%
Cc1cc(C)c(CNC(=O)c2cc(Cl)c3c(c2C)O[C@@](C)([C@H]2CC[C@H](N(C)C)CC2)O3)c(=O)[nH]1 | item: total radioactivity | male human, urine | oral, 200 mg, 96 h | relative to: dose | cumulative excretion | 15.3%
Cc1ccc(C(=O)N(CCCN)C(c2nc3snc(C)c3c(=O)n2Cc2ccccc2)C(C)C)cc1 (centres unmarked) | – | human patients | intravenous, 16 mg/day | – | grade ≥3 hypokalemia patients | 43%
COc1ccc2c3c([nH]c2c1)[C@H](CC(C)C)N1C(=O)[C@H](CC(=O)NC(C)C)NC(=O)[C@@H]1C3 | – | Fech-mutant mouse, liver | oral, 100 mg/kg daily, 5 days | – | liver protoporphyrin IX | 167 ng/g and 87.7 ng/g and 84.3 ng/g
O=C(Nc1ccc(OC(F)(F)Cl)cc1)c1cnc(N2CC[C@@H](O)C2)c(-c2ccn[nH]2)c1 | per patient, item: platelet decrease | human patients | oral, dose not given | – | grade ≥3 event rate | 19.9%

Structure (SMILES) | test | test system | setting | how to read | endpoint | result
COc1ccc(C[C@@H](C)[C@@H](C)Cc2ccc(OC)c(OC)c2)cc1OC | – | beagle dog, male, plasma | oral, 300 mg/kg/day, day 1 | – | AUC(0-t) | 29300 ± 19200 ng·h/mL
NC1(C(=O)N[C@@H](CCO)c2ccc(Cl)cc2)CCN(c2nc[nH]c3nccc2-3)CC1 | – | metastatic CRPC patients | 320 mg b.i.d., any grade, treatment-related, with: enzalutamide 160 mg daily | – | incidence of Diarrhoea | 100%
Cc1ccc2nc(-c3ccccc3)c(CNc3ccc(F)cc3)n2c1 | – | peritoneal macrophages, Swiss mice | 5 days, 5% fetal calf serum | – | CC50 | > 63.1 µM
N#Cc1ccc2c(c1)[C@H]1CCCN(C(=O)c3ccc4[nH]cnc4c3)[C@H]1C2 | – | human, male | 240 mg, day 15 | – | androstenedione level | 6.5 nmol/L
C=CC(=O)Nc1cc(Nc2nccc(-c3cn(C)c4ccccc34)n2)c(OC)cc1N(C)CCN(C)C | storage stability | human dried blood spot | 30 d, on ice, MQC level | – | recovery | 59.9%
[18F]c1ccc(-c2ccc3c(c2)[nH]c2ccncc23)cn1 | ex vivo biodistribution | APP/PS1 mouse, AD model, heart | intravenous, 30 min | – | SUV | 0.522 ± 0.071
C[C@@H](Oc1ccc(S(C)(=O)=O)cc1C(=O)N1C[C@@H]2C[C@]2(c2cc(C(F)(F)F)on2)C1)C(F)(F)F | – | healthy young humans | oral, 75 mg single dose | – | CL/F | 133 mL/min
COc1ccc([C@@H](O)c2cc(-c3ncnc4cc(N5CCOCC5)ccc34)c(F)cc2Cl)nn1 | – | locally advanced rectal cancer patients | 150 mg, with: capecitabine and radiotherapy | – | nausea TEAE incidence | 33%
C/C=C/C[C@H](C)[C@@H](OC)[C@@H](C)[C@H](O)C[C@H]1OC(=O)C=C[C@H]1CC | mass spectrometry | human liver microsomes | concentration not given | – | number of metabolites | 14
O=C1NC(=O)/C(=C/c2ccc3ncnc(N4CCCCC4)c3n2)S1 | – | NSG mice | dose not given, day 2 | – | body weight | 17.5 g and 23.4 g and 25 g and 19.6 g
Cn1cc(Nc2nccc(-c3ccc4c(c3)CN(C3COC3)CC[C@H]4NC(=O)c3cn(C(C)(C)C)nn3)n2)cn1 | – | human, whole blood | 50 mg twice daily, day 14 | relative to: pre-dose baseline | plasmablast count change | 1.91%
Cc1c(C(=O)O)ccc2c3n(nc12)[C@@H]1[C@H](C3)N(CC2CC2)[C@@]2(C(=O)Nc3cc(Cl)ccc32)[C@H]1c1cccc(Cl)c1F | – | female BALB/c nude mice, SJSA-1 xenograft, plasma | oral, 2 mg/kg once daily, 24 h | – | plasma concentration | 722 nM
CC(C)(C(=O)N1CCOc2c(C#N)cncc2C1)C(F)F | item: abdominal discomfort | human | oral, 20 mg once daily, 14 days, multiple ascending dose | – | subjects with adverse event | 0%
CNC(=O)c1ccc(-c2cnc3ncc(Cc4ccc5ncccc5c4)n3n2)cc1F | item: Nausea | cancer patients | oral, dose not given, dose escalation, grade 3-4 | – | patients with adverse event | 0%
CC(C(=O)NCC(=O)NCC(CNC(=O)CNC(=O)C(C)N1CCN(CC(=O)[O-])CCN(CC(=O)[O-])CCN(CC(=O)[O-])CC1)(CNC(=O)CNC(=O)C(C)N1CCN(CC(=O)[O-])CCN(CC(=O)[O-])CCN(CC(=O)[O-])CC1)CNC(=O)CNC(=O)C(C)N1CCN(CC(=O)[O-])CCN(CC(=O)[O-])CCN(CC(=O)[O-])CC1)N1CCN(CC(=O)[O-])CCN(CC(=O)[O-])CCN(CC(=O)[O-])CC1.[Gd+3].[Gd+3].[Gd+3].[Gd+3] (centres unmarked) | ICP-MS | female cynomolgus monkey, plasma | intravenous bolus, 0.1 mmol/kg, lanthanide mixture, geometric mean | – | total plasma clearance | 0.114 L/h/kg
FC(F)(F)c1ccc(CNc2ccc(Cc3c[nH]c4ncc(Cl)cc34)cn2)cn1 | item: Hypophosphatemia | patients with advanced solid tumours, all cohorts | oral, 1000 mg/day, any grade | – | treatment-related adverse events | 13%
CSc1cc(C)nc(SC)c1NC(=O)CN1CCN(CCSc2nc3ccccc3[nH]2)CC1.Cl | – | mouse, olfactory bulb | intranasal, 10 µL in 0.01 N HCl daily, 120 min, 7 days dosing | – | concentration | not detected
Cc1cc(C)c(CNC(=O)c2cc(Cl)c3c(c2C)O[C@@](C)([C@H]2CC[C@H](N(C)C)CC2)O3)c(=O)[nH]1 | – | human relapsed/refractory NHL | oral, 200 mg once daily, onset day 1 to 14 | – | acute respiratory failure grade ≥3 | 0%
COc1ccc2c(=O)n(C)c(-c3ccccc3)nc2c1 | – | Sprague-Dawley rat, male, large intestine | oral, 30 mg/kg, 0.5 h | relative to: large intestine over plasma | tissue/plasma ratio | 10.2
COc1ccnc(C(=O)NCC(=O)O)c1O | aerobic dark soil incubation | clay loam soil | 20 °C, persistence endpoint | – | DT50 | 8.31 days
O=C(O)c1cccc(C(=O)O)c1 | – | betaine/glycerol DES-water | DES mass fraction 0.60 | – | apparent dissolution enthalpy | 14.1 kJ/mol
COc1cccc(OC)c1-c1cc(C(=O)NC2(C(=O)O)C3CC4CC(C3)CC2C4)nn1-c1ccc(C(=O)N(C)CCCN(C)CCCN(C)C(=O)CN2CCN(CC(=O)[O-])CCN(CC(=O)[O-])CCN(CC(=O)[O-])CC2)cc1C(C)C.[177Lu+3] (centres unmarked) | – | mouse, HT-29 xenograft, HT-29 tumour | 24 h post injection | – | tissue uptake | 14 %ID/g
COc1ccnc(C(N)=O)c1O | aerobic dark soil incubation | soil | geometric mean of 4 soils, persistence endpoint | – | DT50 | 11.8 days

Some of these lines once more:
Structure (SMILES) | test | test system | setting | how to read | endpoint | result
CCOCc1nc(O)c(-c2nnc(Cc3ccc(Cl)cn3)o2)c(O)c1-c1c(OC)cccc1OC | – | rat, anaesthetised, cannulated, plasma | intravenous infusion, 10 µg/kg/min, 30 min after infusion stop, washout | – | plasma concentration | 859 nM
O=C([O-])CN1CCN(CC(=O)[O-])CCN(CC(=O)[O-])CCN(CC(=O)[O-])CC1.[Gd+3] | LC-ICP-MS | human plasma | pH 7.4, 37 °C | – | dissociation rate | not detected
N#CN1C[C@H](n2nc(-c3ccc(Oc4ccc(Cl)cn4)cc3)c(C(N)=O)c2N)CCC12CC2 | – | human, fasted, plasma | oral, 600 mg | – | AUC(0-24h) | 12300 ± 4320 ng·h/mL
CC(C)C[C@H](NC(=O)[C@@H](Cc1c[nH]c2ccccc12)NC(=O)[C@H](Cc1ccc(O)cc1)NC(=O)[C@H](CO)NC(=O)[C@H](Cc1c[nH]c2ccccc12)NC(=O)[C@H](Cc1c[nH]cn1)NC(=O)[C@@H]1CCC(=O)N1)C(=O)N[C@@H](CCCNC(=N)N)C(=O)N1CCC[C@H]1C(=O)NCC(N)=O | – | Chinese CPP children, overall | intramuscular, 22.5 mg, 12 months, day 1, month 6 | – | patients, serious adverse events | 0%
COc1cc2nccc(Oc3ccc(NC(=O)c4cc5c(n(-c6ccccc6)c4=O)CCCC5=O)nc3)c2cc1OC | – | relapsed or refractory AML | oral, all dose levels | – | grade ≥3 Hypophosphatemia patients | 15%
Cn1cncc1[C@@](N)(c1ccc(Cl)cc1)c1ccc2c(c1)c(-c1cccc(Cl)c1)cc(=O)n2C | – | healthy human, plasma | intravenous, 25 mg | – | Vss | 126 L
N#C/N=S(\c1ccc(C(F)(F)F)cc1)C1CC1 (centres unmarked) | – | human liver microsomes | – | relative to: hepatic blood flow | metabolic stability | < 23%
